Experimental data collected from several papers.
“And” joins repeats or separate records; there may be more than shown. ± gives the spread as reported.
gag-pol integrase: Gag-Pol polyprotein, integrase (gag-pol, Human immunodeficiency virus 1, UniProt P12497)
ilvC: Ketol-acid reductoisomerase (NADP(+)) (ilvC, Mycobacterium tuberculosis, UniProt P9WKJ7)
UniProt P9WKJ7, sequence (whole entry, looked up): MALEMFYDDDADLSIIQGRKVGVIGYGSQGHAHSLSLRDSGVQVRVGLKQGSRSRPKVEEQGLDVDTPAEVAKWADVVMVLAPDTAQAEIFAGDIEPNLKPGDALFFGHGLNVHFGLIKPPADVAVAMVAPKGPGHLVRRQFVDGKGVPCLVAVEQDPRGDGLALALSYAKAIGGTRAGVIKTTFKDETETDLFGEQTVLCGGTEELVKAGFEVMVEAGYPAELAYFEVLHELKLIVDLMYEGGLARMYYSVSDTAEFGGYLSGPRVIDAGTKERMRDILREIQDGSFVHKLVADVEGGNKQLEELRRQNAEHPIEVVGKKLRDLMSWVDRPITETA
BCHE: Cholinesterase (BCHE, Homo sapiens, UniProt P06276)
UniProt P06276, sequence (whole entry, looked up): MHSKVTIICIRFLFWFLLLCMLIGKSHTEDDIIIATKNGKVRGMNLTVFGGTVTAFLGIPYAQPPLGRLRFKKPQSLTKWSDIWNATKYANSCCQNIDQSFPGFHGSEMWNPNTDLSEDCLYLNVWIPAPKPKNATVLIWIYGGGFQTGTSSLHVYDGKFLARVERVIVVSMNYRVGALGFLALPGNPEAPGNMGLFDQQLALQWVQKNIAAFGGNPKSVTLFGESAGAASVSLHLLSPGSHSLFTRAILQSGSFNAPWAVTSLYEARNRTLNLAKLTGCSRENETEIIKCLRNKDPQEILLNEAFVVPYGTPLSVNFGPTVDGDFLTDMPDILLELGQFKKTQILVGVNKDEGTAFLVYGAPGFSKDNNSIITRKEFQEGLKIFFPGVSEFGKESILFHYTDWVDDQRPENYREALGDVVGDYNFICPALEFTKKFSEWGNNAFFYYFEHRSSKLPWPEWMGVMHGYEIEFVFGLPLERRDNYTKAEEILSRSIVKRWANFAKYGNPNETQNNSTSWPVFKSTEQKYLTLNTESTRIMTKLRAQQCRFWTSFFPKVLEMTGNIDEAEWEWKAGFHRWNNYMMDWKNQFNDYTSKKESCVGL
gag-pol integrase with LEDGF/p75: Gag-Pol polyprotein, integrase with LEDGF/p75 (gag-pol, Human immunodeficiency virus 1, UniProt P12497)
UniProt Q00975, sequence (whole entry, looked up): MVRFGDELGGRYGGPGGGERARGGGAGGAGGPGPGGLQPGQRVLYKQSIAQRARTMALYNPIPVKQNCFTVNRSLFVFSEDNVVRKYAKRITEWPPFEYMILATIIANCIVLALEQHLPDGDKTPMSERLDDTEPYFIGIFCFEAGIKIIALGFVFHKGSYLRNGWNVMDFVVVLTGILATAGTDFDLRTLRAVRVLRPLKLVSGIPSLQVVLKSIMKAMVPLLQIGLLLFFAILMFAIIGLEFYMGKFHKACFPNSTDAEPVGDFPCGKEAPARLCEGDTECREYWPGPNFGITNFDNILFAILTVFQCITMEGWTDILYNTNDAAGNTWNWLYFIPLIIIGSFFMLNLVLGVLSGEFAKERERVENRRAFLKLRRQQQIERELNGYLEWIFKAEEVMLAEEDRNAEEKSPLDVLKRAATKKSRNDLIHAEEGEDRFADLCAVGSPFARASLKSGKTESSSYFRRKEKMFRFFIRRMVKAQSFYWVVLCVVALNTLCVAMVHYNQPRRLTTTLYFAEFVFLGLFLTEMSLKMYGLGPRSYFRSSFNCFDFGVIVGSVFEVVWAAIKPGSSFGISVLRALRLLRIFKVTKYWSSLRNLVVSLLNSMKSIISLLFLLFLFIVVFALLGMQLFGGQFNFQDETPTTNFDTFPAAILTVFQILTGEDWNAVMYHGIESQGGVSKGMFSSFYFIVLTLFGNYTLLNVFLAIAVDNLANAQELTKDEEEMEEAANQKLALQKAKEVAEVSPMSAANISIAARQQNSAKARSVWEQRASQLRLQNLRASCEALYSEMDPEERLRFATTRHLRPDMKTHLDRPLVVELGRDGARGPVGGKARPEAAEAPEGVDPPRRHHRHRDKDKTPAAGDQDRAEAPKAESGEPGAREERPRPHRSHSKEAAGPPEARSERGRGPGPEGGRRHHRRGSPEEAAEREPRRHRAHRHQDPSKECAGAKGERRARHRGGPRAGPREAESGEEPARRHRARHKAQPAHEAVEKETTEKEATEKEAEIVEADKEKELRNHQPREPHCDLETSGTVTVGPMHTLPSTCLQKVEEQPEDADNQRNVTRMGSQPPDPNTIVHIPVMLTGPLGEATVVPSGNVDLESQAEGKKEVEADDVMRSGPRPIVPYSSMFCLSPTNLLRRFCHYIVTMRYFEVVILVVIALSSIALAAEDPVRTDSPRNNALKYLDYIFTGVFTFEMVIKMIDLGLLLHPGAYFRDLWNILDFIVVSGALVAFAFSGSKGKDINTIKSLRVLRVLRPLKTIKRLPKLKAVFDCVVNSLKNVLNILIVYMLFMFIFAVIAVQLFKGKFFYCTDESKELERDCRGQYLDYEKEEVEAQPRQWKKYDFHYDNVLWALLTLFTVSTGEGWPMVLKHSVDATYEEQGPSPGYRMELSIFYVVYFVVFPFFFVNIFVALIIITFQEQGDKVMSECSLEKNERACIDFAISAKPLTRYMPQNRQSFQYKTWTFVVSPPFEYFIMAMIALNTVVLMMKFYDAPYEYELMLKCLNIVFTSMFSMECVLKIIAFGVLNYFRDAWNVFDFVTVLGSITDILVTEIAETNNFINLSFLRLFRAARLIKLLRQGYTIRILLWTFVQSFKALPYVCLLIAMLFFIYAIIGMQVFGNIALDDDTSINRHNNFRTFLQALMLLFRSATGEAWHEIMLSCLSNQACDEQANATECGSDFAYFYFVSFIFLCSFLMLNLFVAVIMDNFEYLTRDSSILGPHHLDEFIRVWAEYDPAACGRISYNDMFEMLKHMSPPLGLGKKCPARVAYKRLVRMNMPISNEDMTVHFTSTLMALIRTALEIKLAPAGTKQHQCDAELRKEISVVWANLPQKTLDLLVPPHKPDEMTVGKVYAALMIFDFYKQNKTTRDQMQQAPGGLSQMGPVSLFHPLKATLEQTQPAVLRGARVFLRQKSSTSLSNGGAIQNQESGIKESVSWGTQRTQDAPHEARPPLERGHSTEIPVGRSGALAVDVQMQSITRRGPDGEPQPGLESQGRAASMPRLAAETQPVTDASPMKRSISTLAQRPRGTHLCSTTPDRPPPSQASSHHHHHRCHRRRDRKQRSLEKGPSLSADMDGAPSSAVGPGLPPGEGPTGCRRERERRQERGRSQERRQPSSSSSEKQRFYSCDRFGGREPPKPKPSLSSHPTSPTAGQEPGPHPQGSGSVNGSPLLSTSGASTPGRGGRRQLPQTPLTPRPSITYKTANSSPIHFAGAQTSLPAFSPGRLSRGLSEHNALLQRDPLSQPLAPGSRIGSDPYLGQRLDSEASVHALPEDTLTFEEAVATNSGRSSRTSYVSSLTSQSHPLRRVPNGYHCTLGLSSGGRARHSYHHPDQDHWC
UniProt Q9JMD7, sequence (whole entry, looked up): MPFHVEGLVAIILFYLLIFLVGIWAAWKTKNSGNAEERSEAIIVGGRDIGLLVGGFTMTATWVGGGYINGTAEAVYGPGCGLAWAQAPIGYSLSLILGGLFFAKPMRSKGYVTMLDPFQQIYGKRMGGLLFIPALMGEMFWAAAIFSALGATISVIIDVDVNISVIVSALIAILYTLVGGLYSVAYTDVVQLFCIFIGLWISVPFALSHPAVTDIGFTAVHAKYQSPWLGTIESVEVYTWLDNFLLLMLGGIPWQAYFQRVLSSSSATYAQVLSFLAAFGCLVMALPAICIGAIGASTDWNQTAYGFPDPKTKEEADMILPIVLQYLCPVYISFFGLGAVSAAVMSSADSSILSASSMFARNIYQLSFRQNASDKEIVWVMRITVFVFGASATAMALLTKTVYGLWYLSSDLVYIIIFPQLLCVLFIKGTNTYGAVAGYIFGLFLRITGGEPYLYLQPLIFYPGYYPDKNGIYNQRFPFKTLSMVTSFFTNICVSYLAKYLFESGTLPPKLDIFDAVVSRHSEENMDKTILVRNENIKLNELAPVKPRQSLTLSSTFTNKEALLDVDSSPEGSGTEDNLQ
UniProt P35462, sequence (whole entry, looked up): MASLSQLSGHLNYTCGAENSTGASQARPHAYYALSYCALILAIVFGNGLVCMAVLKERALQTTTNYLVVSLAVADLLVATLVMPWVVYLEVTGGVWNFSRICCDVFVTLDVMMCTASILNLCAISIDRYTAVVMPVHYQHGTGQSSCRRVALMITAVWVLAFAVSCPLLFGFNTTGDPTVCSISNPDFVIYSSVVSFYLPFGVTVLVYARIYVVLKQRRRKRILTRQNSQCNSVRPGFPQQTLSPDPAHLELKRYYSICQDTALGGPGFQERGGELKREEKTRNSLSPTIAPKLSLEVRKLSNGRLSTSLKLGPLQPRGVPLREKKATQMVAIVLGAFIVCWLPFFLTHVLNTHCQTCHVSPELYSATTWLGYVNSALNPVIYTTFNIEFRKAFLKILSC

For C/C(=N\Nc1ccc(S(=O)(=O)Nc2ccccc2)cc1[N+](=O)[O-])c1cc(O)ccc1O, the IC50 was > 100 µM (gag-pol integrase; strand transfer activity, inhibitor; wild-type integrase).
The EC50 of COc1ccc(NC(=O)N2CCCCN3C[C@H](c4ccc(C#Cc5ccccc5)cc4)[C@@H]3C2)cc1 is reported as 0.0408 µM (Cryptosporidium parvum; luciferase; HCT-8, transgenic wild-type PheRS; 48 h).
O=C(Nc1cnccc1Cl)N1CCN(Cc2ccc3c(c2)OC(F)(F)O3)CC1 — result for “inhibition of binding”: 0% (High affinity choline transporter 1 (Rattus norvegicus, UniProt Q9JMD7); radioligand binding; 50 µM, rat transporter, added: [3H]hemicholinium-3).
O=c1[nH]c2nc(-c3ccccc3)sc2c(=O)n1O gave a Ki of 0.023 µM and 0.0233 µM (ilvC; pre-incubation 30 min without NADPH, added: NADPH 200 µM, AL 1 mM).
COc1cc(Nc2ncc(F)c(Nc3ccc4c(n3)NC(=O)C(C)(C)O4)n2)cc(OC)c1OC has an IC50 of > 10 µM (Voltage-dependent N-type calcium channel subunit alpha-1B (Homo sapiens, UniProt Q00975)).
The IC50 of Clc1ccccc1CNCC1CCC(CNCc2ccccc2Cl)CC1 (centres unmarked) is reported as 6.15 ± 2.67 µM (BCHE; inhibitor).
For Cc1nc2[nH]c(=O)n(O)c(=O)c2[nH]1, the Ki was 134 ± 56.6 µM (ilvC; inhibitor; 30 min preincubation, added: NADPH).
With c1ccc2sc(C3(N4CCCCC4)CCCCC3)cc2c1 the IC50 was 8.63 ± 3.08 µM (BCHE; inhibitor; with Triton).
The IC50 of O=C(N/N=C/c1ccc(Cl)cc1Cl)c1cnccn1 is reported as > 100 µM (gag-pol integrase; strand transfer activity, inhibitor; wild-type integrase).
For CC(C)[C@@H]1NC(=O)[C@H](Cc2ccccc2)NC(=O)[C@@H]2NC(=O)[C@H](Cc3ccccc3)NC(=O)[C@@H]3CCCN3C(=O)CNC(=O)[C@H](Cc3ccccc3)NC(=O)[C@@H]3CNCCCC[C@@H](C(=O)O)NC(=O)[C@@H]4NC(=O)[C@H](CC(N)=O)NC(=O)CNC(=O)[C@H]([C@@H](O)C(=O)O)NC(=O)[C@H](CSC[C@@H](NC(=O)[C@H](CCC(N)=O)NC(=O)[C@H](CCCCNC(=O)c5ccc(NN)nc5)NC(=O)[C@@H](N)CS[C@H]4C)C(=O)N[C@@H](CS[C@H]2C)C(=O)N3)NC1=O [technetium-99m labelled], the tissue uptake was 0.02 %ID/g (rat, saline control, muscle; intravenous, 2 h after tracer, tracer 2 h after reperfusion).
The IC50 of CC(C)(CO)Cc1cc(C(C)(C)C)c(O)c(C(C)(C)C)c1 is reported as 7.94 µM (Plasmodium falciparum; W2).
The IC50 of Oc1ccc(Br)cc1/C=N/Nc1cccc2cccnc12 is reported as > 50 µM (gag-pol integrase with LEDGF/p75; LEDGF/p75-integrase interaction, inhibitor, AlphaScreen).
For CC[C@H](NC(=O)[C@H](CS(=O)(=O)CC1CC1)N[C@@H](c1ccc(F)cc1)C(F)(F)F)C(=O)C(=O)NC1CC1, the IC50 was 3.45 ± 1.75 µM (BCHE; inhibitor, fluorometric).
For C[C@@H](O)[C@@H](CO)NC(=O)[C@@H](CCCNC(=N)N)NC(=O)[C@@H]1CCCN1C(=O)[C@@H]1CSSC[C@H](NC(=O)[C@H](Cc2ccccc2)NC(=O)CN2CCN(CC(=O)O)CCN(CC(=O)O)CCN(CC(=O)O)CC2)C(=O)N[C@@H](Cc2ccc(O)cc2)C(=O)N[C@@H](Cc2ccccc2)C(=O)N[C@@H](CCC(N)=O)C(=O)N[C@@H](CC(N)=O)C(=O)N1 [gallium-68 labelled], the tissue uptake was 0.35 %ID/g (Wistar rat, stomach; intravenous, 8 MBq, 30 min, group mean).
Cc1[nH]c(C)c(S(=O)(=O)Nc2ccc(S(F)(F)(F)(F)F)cc2)c1C(=O)N1CCC(F)(F)C1 gave a Kb of 2 µM (D(3) dopamine receptor (DRD3, Homo sapiens, UniProt P35462); allosteric modulator, radioligand binding; added: dopamine).
The Ki of Cc1nc2[nH]c(=O)n(OS(=O)(=O)c3ccccc3)c(=O)c2s1 is reported as > 50 µM (ilvC; inhibitor; 30 min preincubation, added: NADPH).
With CN1CCc2cc(Cl)c(O)cc2[C@@H](c2cccc3c2OCC3)C1 the IC50 was 0.4 ± 0.128 µM (BCHE; enzyme activity, fluorescence).
COc1cc2c(cc1C(F)(F)F)N(C(=O)Nc1cc(F)cc(-c3cccnc3)c1)CC2 gave an IC50 of 7.94 µM (Plasmodium falciparum; Dd2).
Cc1nnc(NN)c2c1[nH]c1ccccc12 has an IC50 of > 100 µM (gag-pol integrase; strand transfer activity, inhibitor; wild-type integrase).
For O=c1[nH]c2nc(-c3ccncc3)sc2c(=O)n1O, the Ki was 0.24 ± 0.03 µM (ilvC; inhibitor; 30 min preincubation, added: NADPH).
CN1CCC[C@@H]1Cc1c[nH]c2ccc(CCS(=O)(=O)c3ccccc3)cc12 has an IC50 of 1.82 ± 1.13 µM (BCHE; inhibitor, fluorometric).
For O=C(N/N=C/c1c(O)ccc2ccccc12)c1ccncc1, the IC50 was > 100 µM (gag-pol integrase; 3'-processing activity, inhibitor; wild-type integrase).
C[C@H]1CN(c2n[nH]c3nc(N[C@H]4CC[C@H](NS(=O)(=O)CCC(F)(F)F)CC4)ncc23)CCO1 has an IC50 of ≥ 20 µM (Epithelial discoidin domain-containing receptor 1 (DDR1, Homo sapiens, UniProt Q08345); biochemical).
With COc1ccccc1NS(=O)(=O)c1ccc(N/N=C(\C)c2ccccc2Br)c([N+](=O)[O-])c1 the IC50 was > 100 µM (gag-pol integrase; 3'-processing activity, inhibitor; wild-type integrase).
For Cc1c(NC(=O)c2cc3c(s2)CCCC3)cccc1-c1cn(C)c(=O)c(Nc2ccc(C3C(=O)N(C)CCN3C)cc2)n1 (racemic), the IC50 was 6.6 ± 0.43 µM (BCHE; inhibitor).
NNC(=O)Cn1cnc(-c2ccc(F)cc2)c1 has an IC50 of > 50 µM (gag-pol integrase with LEDGF/p75; LEDGF/p75-integrase interaction, inhibitor, AlphaScreen).
With Nc1c2c(nc3ccccc13)CCCC2O (centres unmarked) the IC50 was 0.21 ± 0.01 µM (BCHE; inhibitor).
With c1ccc(/N=N/C(=N/Nc2ccccc2)c2ccccc2)cc1 the IC50 was > 100 µM (gag-pol integrase; 3'-processing activity, inhibitor; wild-type integrase).
O=C(CN1C2=NCCN2c2ccccc21)c1ccc(-c2ccccc2)cc1 gave an IC50 of 7.2 ± 1.29 µM (BCHE; inhibitor; with Triton).

A few entries again:
With c1ccc(/N=N/C(=N/Nc2ccccc2)c2ccccc2)cc1 the IC50 was > 100 µM (gag-pol integrase; 3'-processing activity, inhibitor; wild-type integrase).
COc1cc2c(cc1C(F)(F)F)N(C(=O)Nc1cc(F)cc(-c3cccnc3)c1)CC2 gave an IC50 of 7.94 µM (Plasmodium falciparum; Dd2).
The IC50 of Clc1ccccc1CNCC1CCC(CNCc2ccccc2Cl)CC1 (centres unmarked) is reported as 6.15 ± 2.67 µM (BCHE; inhibitor).
